Assay results pooled from the literature.
Compare with care: the assays were run in different laboratories. “And” joins repeats or separate records; there may be more than shown. ± gives the spread as reported. Values after ≈ are worked out from the molar mass of the structure shown.

With `COc1cccc(OC)c1-c1cc(C(=O)NC2(C(=O)O)C3CC4CC(C3)CC2C4)nn1-c1ccc(C(=O)N(C)CCOCCN(C)C(=O)[C@H](CCCCNC(=O)[C@H](CC(C)C)NC(=O)C2OC2C(=O)O)NC(=O)CN2CCN(CC(=O)[O-])CCN(CC(=O)[O-])CCN(CC(=O)[O-])CC2)cc1C(C)C.[177Lu+3]` (mixture of isomers) the tumour-to-lung ratio was 4.03 (mouse, HT-29 xenograft; 168 h post injection, biodistribution; baseline: tumour over lung uptake).
`C=CC(=O)Nc1cc(Nc2nccc(-c3c[nH]c4ccccc34)n2)c(OC)cc1N(C)CCN(C)C` has a recovery of 71.9% (storage stability; human plasma; 72 h, on ice, high QC level).
With `C=C(NC(=O)c1csc(-c2nc3c(cc2O)-c2nc(cs2)C(=O)NC(C(C)O)C(=O)NC(=C(C)OC)c2nc(cs2)C(=O)NC2c4nc(cs4)C(=O)NC(COC(=O)c4c5c6c(cccc6n4O)COC(=O)C(OC4CC(C)(O)C(N(C)C)C(C)O4)C2OC5)c2nc-3cs2)n1)C(N)=O` (centres unmarked) the half-life was 55.8 ± 7.8 min (cynomolgus monkey, both sexes, plasma; intravenous infusion, 1.5 mg/kg twice daily, 6 to 12 h, second dose).
`CN(Cc1ccc(C2(C(F)(F)F)CCC2)cc1)Cc1cccc2ccccc12` gave a solubility of 7 µM (≈ 2.68 µg/mL) (PBS; 2 h, pH 7.4, 25 °C, 2% DMSO).
Under “drug-related dry mouth”, `CC[C@H](C)[C@@H]1NC(=O)[C@H](Cc2ccc(O)cc2)NC(=O)CCCSC[C@@H](C(=O)N(CC(=O)N[C@@H](CC(C)C)C(=O)NCC(N)=O)Cc2ccc(F)cc2)NC(=O)[C@H](CC(N)=O)NC(=O)[C@H](CCC(N)=O)NC1=O` is recorded as 33% (human; intranasal, 5 µg single).
With `CN1CCCC1C(=O)NC(Cc1ccc(-n2cccn2)cc1)B(O)O` (centres unmarked) the Papp A→B was 0.54 ×10⁻⁶ cm/s (Caco-2).
`COc1cccc(OC)c1-c1cc(C(=O)NC2(C(=O)O)C3CC4CC(C3)CC2C4)nn1-c1ccc(C(=O)N(C)CCCN(C)CCCN(C)C(=O)[C@H](CCCCNC(=O)[C@H](CC(C)C)NC(=O)C2OC2C(=O)O)NC(=O)CN2CCN(CC(=O)[O-])CCN(CC(=O)[O-])CCN(CC(=O)[O-])CC2)cc1C(C)C.[177Lu+3]` (mixture of isomers) gave a tumour-to-lung ratio of 4.35 (mouse, HT-29 xenograft; 168 h post injection, biodistribution; baseline: tumour over lung uptake).
`Cc1noc(C)c1Cn1cc(N2C(=O)CN(Cc3cccc(OS(=O)(=O)O)c3)C2=O)cn1` gave a plasma concentration of 3730 ng/mL (Sprague-Dawley rat, male; oral, 100 mg/kg of parent drug, 1 h).
`CCCCC/C=C\CCCO[Si](CCCCCCN(C)C)(OCCC/C=C\CCCCC)OCCC/C=C\CCCCC` gave a zeta potential of 0.54 mV (pH 7.5, formulated).
For `O=C(Nc1cnccc1-c1ccc([18F])nc1)c1ccnc(NC(=O)C2CC2)c1`, the SUV was 0.551 (mice, transgenic, GSK-3β, early-stage, muscle; intravenous, dose not given, 120 min, together with: tariquidar 15 mg/kg i.v. pre-dose).
With `[123I]c1ccc2nc(-c3ccc(-n4ccnn4)nc3)cn2c1` the tissue uptake was 0.207 ± 0.017 %ID/g (Wistar rat, male, adrenals; intravenous, 4 MBq, 6 h).
For `Cc1ccc(OCC(=O)N(Cc2cccs2)c2ccn[nH]2)cc1`, the remaining compound was 94 (human plasma; 750 ng/mL, 4 h, 37 °C, unit not given; baseline: time zero).
With `CC1Cc2ccccc2N1C(=O)CN1CCN(Cc2ccccc2)CC1` (centres unmarked) the concentration was 1420 ng/mL and 1940 ng/mL (female NMRI mice, brain; intraperitoneal, 10 mg/kg free base, 15 min).
`COc1cccc(OC)c1-c1cc(C(=O)NC2(C(=O)O)C3CC4CC(C3)CC2C4)nn1-c1ccc(C(=O)N(C)CCCN(C)C(=O)[C@H](CCCCNC(=O)[C@H](CC(C)C)NC(=O)C2OC2C(=O)O)NC(=O)CN2CCN(CC(=O)[O-])CCN(CC(=O)[O-])CCN(CC(=O)[O-])CC2)cc1C(C)C.[177Lu+3]` (mixture of isomers): “tumour-to-small intestine ratio” 12.2 (mouse HT-29 xenograft; 24 h, biodistribution; baseline: tumour over small intestine).
With `Cc1cc(NC(=O)C(=O)N2C[C@@H](C)CC[C@@H]2c2ccc3scnc3c2)cnc1N` the tissue/plasma ratio was roughly 0.15 (mouse, brain and plasma; baseline: brain over plasma).
For `CC(C)C[C@H](NC(=O)[C@@H](CCCCNC(=O)[C@@H](Cc1ccccc1)NC(=O)CCCCCCCNC(=O)CN1CCN(CC(=O)O)CCN(CC(=O)O)CCN(CC(=O)O)CC1)NC(=O)[C@H](Cc1ccc(O)cc1)NC(=O)[C@H](CO)NC(=O)[C@H](Cc1c[nH]c2ccccc12)NC(=O)[C@H](Cc1c[nH]cn1)NC(=O)[C@@H]1CCC(=O)N1)C(=O)N[C@@H](CCCNC(=N)N)C(=O)N1CCC[C@H]1C(=O)NCC(N)=O` [indium-111 labelled], “polar metabolites in urine” read roughly 40% (radio-HPLC; nude mice, DU-145 tumour-bearing, urine; intravenous, 18.5 MBq, 1 h; baseline: radioactivity).
The mean SUV of `O=C(Nc1cnccc1-c1ccc([18F])cc1)c1ccnc(NC(=O)C2CC2)c1` is reported as 0.14 (ex vivo gamma counting; FVB/NJ mice, both sexes, adipose tissue; intravenous, 120 min).
For `CCCCN1C(=O)c2cccc3c(NCCCCCN4CCOCC4)ccc(c23)C1=O`, the fluorescence lifetime was 10.4 ns (DMSO).
`CCn1nc(Cl)c2c1-c1cnc(N)c(c1)O[C@H](C)c1cc(F)ccc1-c1nn(C)cc1C2`: “free plasma concentration” 0.33 nM (Balb/c nude mouse female, plasma; 0.06 mg/kg single dose, 1 h).
`COCC1CN(C2CCN(c3cc(OC)c(Nc4ncc(Br)c(Nc5ccc6c(c5P(C)(C)=O)OCCO6)n4)cc3C)CC2)C1` gave an adverse events of 0% (first-in-human trial; human; oral, 10 mg once daily; treatment-related leading to permanent discontinuation).
`CCCC[C@H](NC(=O)COCCOCCNC(=O)CN1CCN(CC(=O)O)CCN(CC(=O)O)CC1)C(=O)N[C@H]1CC(=O)NCCCC[C@@H](C(N)=O)NC(=O)[C@H](Cc2c[nH]c3ccccc23)NC(=O)[C@H](CCCNC(=N)N)NC(=O)[C@@H](Cc2ccccc2)NC(=O)[C@H](Cc2c[nH]cn2)NC1=O` [fluorine-18 labelled] gave a tissue uptake of 2.25 ± 0.28 %ID/g (C57 mice B16-F10 melanoma, skin; intravenous, 0.37 MBq, 0.5 h).
`CN(O)C(=O)CCC(=O)NCCCN(CCCCN(CCCNC(=O)CCC(=O)N(C)O)C(=O)CCC(=O)N(C)O)C(=O)CCC(=O)N(C)O.[89Zr]` gave an intact complex of 97.7 ± 1.4% (radio-TLC; aqueous buffer; 1 d, pH 7.2, 37 °C, 89Zr-labelled complex, together with: CoCl2 10-fold excess).
For `CC(C)C[C@H](NC(=O)[C@H](CCCN)NC(=O)CNC(=O)[C@@H](NC(=O)[C@H](C)NC(=O)[C@@H]1CSCSC[C@H](NC(=O)CC[C@H](N)C(=O)O)C(=O)N[C@@H](CC(N)=O)C(=O)N[C@@H]([C@@H](C)O)C(=O)N[C@@H](C)C(=O)N[C@@H]([C@@H](C)O)C(=O)N1)[C@@H](C)O)C(=O)N[C@@H](C)C(=O)N[C@@H](CCC(=O)O)C(=O)N[C@@](C)(Cc1ccccc1)C(=O)N[C@@H](CC(C)C)C(=O)N[C@H](C(=O)N[C@@H](CCCNC(=N)N)C(=O)N[C@@H](CO)C(=O)N[C@@H](CO)C(=O)N[C@@H](CC(N)=O)C(=O)N(C)[C@@H](CC(N)=O)C(=O)N[C@@H](Cc1ccccc1)C(=O)NCC(=O)N1CCC[C@H]1C(=O)N[C@@H](CCCCNC(=O)CC[C@H](NC(=O)CC[C@H](NC(=O)CCCCCCCCCCCCCCCCCCC(=O)O)C(=O)O)C(=O)O)C(=O)N[C@@H](CC(C)C)C(=O)N1CCC[C@H]1C(=O)N1CCC[C@H]1C(=O)N[C@H](C(=O)N[C@@H](CCC(=O)O)C(=O)N[C@H](C(=O)NCC(=O)N[C@@H](CO)C(=O)N[C@@H](CC(N)=O)C(=O)N[C@H](C(=O)N[C@@H](Cc1ccc(O)cc1)C(N)=O)[C@@H](C)O)C(C)C)[C@@H](C)O)C(C)C`, the %AUC extrapolated was 5.8% (healthy human; subcutaneous, 4 mg).
For `Cc1nc(N)nc2c1C(=O)N[C@@H](c1ccc(F)cc1-c1cccc(OCC[18F])n1)C2`, “radioactivity in blood cells” read 41 ± 5% (Wistar rats, blood; intravenous, dose not given, 100 min).
With `Cc1cc(NC(=O)c2ccc(Br)cc2)n[nH]1` the logP was 2.7 (octanol/buffer; pH 11).
With `CCC1CNC(CC)CN(C(C(=O)[O-])c2ccc(C(=O)[O-])cc2)C(CC)CN(CC(=O)[O-])C(CC)CN1.[Mn+2]` (centres unmarked) the Mn content was 2.84 ± 0.52 µg/g (ICP-MS; BALB/c mouse, blood; intravenous, 0.05 mmol/kg, 5 min, without anaesthesia).
With `CN(C)c1ccc(C2CC(Nc3ccc(-c4ccc(NC5=NOC(c6ccc(N(C)C)cc6)C5)cc4)cc3)=NO2)cc1` (centres unmarked) the logP was 6.43 (shake flask UV/Vis; n-octanol/water).
For `C/C(N)=N/C(=N\S(=O)(=O)c1ccc(C(F)(F)F)cc1)N1C[C@H](c2ccccc2)C(c2ccc(Cl)cc2)=N1`, the tissue/plasma ratio was 6 (C57BL/6 mouse, male, kidney; intravenous, 10 mg/kg; baseline: kidney over plasma).
`OC1(C(F)(F)F)CCN(c2nc(Nc3ccnc(C(F)(F)F)c3)nc(-c3cccc(C(F)(F)F)n3)n2)C1` (centres unmarked) gave an MRT(0-inf) of 48 ± 9.93 h (monkey, blood; oral, 10 mg/kg).
With `COc1cccc(OC)c1-c1cc(C(=O)NC2(C(=O)O)C3CC4CC(C3)CC2C4)nn1-c1ccc(C(=O)N(C)CCOCCOCCN(C)C(=O)[C@H](CCCCNC(=O)[C@H](CC(C)C)NC(=O)C2OC2C(=O)O)NC(=O)CN2CCN(CC(=O)[O-])CCN(CC(=O)[O-])CCN(CC(=O)[O-])CC2)cc1C(C)C.[177Lu+3]` (mixture of isomers) the tumour-to-lung ratio was 5.14 (mouse, HT-29 xenograft; 72 h post injection, biodistribution; baseline: tumour over lung uptake).
`CC[C@H](C)[C@H](NC(=O)[C@H](CCCCN)NC(=O)[C@H](CCC(=O)O)NC(=O)[C@H](CO)NC(=O)[C@H](Cc1ccccc1)NC(=O)[C@H](CC(C)C)NC(=O)[C@H](CCC(N)=O)NC(=O)[C@H](CO)NC(=O)[C@H](C)NC(=O)[C@H](CCCCN)NC(=O)[C@H](Cc1c[nH]cn1)NC(=O)[C@H](Cc1c[nH]c2ccccc12)NC(=O)[C@H](CCC(N)=O)NC(=O)[C@H](CCCCN)NC(=O)[C@H](CCCCN)NC(=O)[C@H](CC(C)C)NC(=O)CNC(=O)[C@H](C)NC(=O)[C@@H](NC(=O)[C@H](CO)NC(=O)[C@@H](N)CCSC)C(C)C)C(=O)N[C@@H](CO)C(=O)NCC(=O)N[C@@H](C)C(N)=O` — result for “folding free energy”: 6.83 kcal/mol (water).
With `C[C@]12C[C@H](c3ccc(S(C)(=O)=O)cc3)C3=C4CCC(=O)C=C4CC[C@H]3[C@@H]1CC[C@@]2(O)C(F)(F)C(F)(F)F` the plasma concentration was 4.05 ng/mL (refers to: compound (parent); healthy human volunteers, pooled plasma; oral, 5 mg daily, day 28, 96 h).
`Cc1cc(-c2ccc(C(=O)[C@@H]3CCCC[C@H]3C(=O)Nc3cnn4c3C(=O)NCC4)cc2)[nH]n1`: “cumulative recovery of radioactivity” 49.8% (human, faeces; oral, 200 mg, 0-72 h; baseline: dose).
`O=C(NCC1OC2CCC=CCCC2O1)c1ccc([18F])nc1` (centres unmarked) gave a tissue uptake of 8.2 ± 1.2 %ID/g (healthy female BALB/c nude mice, small intestine; intravenous, 7.4 MBq per mouse, 5 min).
The solubility of `OC[C@H]1O[C@@H](n2cnc3c(SCc4ccccc4)nc(Cl)nc32)C[C@@H]1O` is reported as 21.4 µM (≈ 8.41 µg/mL) (UV absorbance; culture medium; stock diluted to 0.10 mM).
